Experimental data collected from several papers.
Each line is one published result; not all experiments were run side by side. ± gives the spread as reported.

| Compound | cell line | assay | test system | conditions | IC50 |
| --- | --- | --- | --- | --- | --- |
| Cc1cn(-c2cc(NC(=O)c3ccc(C)c(Nc4nccc(-c5cccnc5)n4)c3)cc(C(F)(F)F)c2)cn1 | HD-MB03 |  |  | 168 h | inactive |
| CCCS(=O)(=O)Nc1ccc(F)c(C(=O)c2c[nH]c3ncc(-c4ccc(Cl)cc4)cc23)c1F | SK-MEL-2 (NRAS Q61R) | ERK phosphorylation, Western blot |  | 1 h | > 30 µM |
| Cc1nc(NC(=O)N2CCC[C@H]2C(N)=O)sc1-c1ccnc(C(C)(C)C(F)(F)F)c1 | NCI-H596 | growth rate inhibition, CellTiter-Glo |  | 120 h | 0.204 µM |
| COc1cccc2c1C(=O)c1c(O)c3c(c(O)c1C2=O)C[C@@](O)(C(=O)CO)C[C@@H]3O[C@H]1C[C@H](N)[C@H](O)[C@H](C)O1 | HD-MB03 | cell growth |  | 168 h, DMSO | 0.16 µM |
| CN(c1ccc(NC(=O)c2cccc(C(=N)N)c2)cc1OCc1ccc(C(=N)N)cc1)S(=O)(=O)Cc1ccccc1 | RAW264.7 | cell growth, MTT |  | 48 h | > 500 µM |
| CCCc1nc(C(C)(C)O)c(C(=O)O)n1Cc1ccc(-c2ccccc2-c2nnn[nH]2)cc1 | human skeletal muscle cells | BCKD phosphorylation, inhibitor |  |  | > 60 µM |
| CC(C)C(=O)Nc1ccc([N+](=O)[O-])c(C(F)(F)F)c1 | THLE-2 cells, Ad-Null transduced | cell viability |  | no enzyme control | 31 ± 6.6 µM |
| N=C(N)Nc1ccc(NC(=O)c2ccc3c(c2)OCO3)cc1OCc1ccccc1C(F)(F)F | RAW264.7 | cell growth, MTT |  | 48 h | > 500 µM |
| Cc1c(C(=O)O)ccc2c3n(nc12)[C@@H]1[C@H](C3)N(CC2CC2)[C@@]2(C(=O)Nc3cc(Cl)ccc32)[C@H]1c1cccc(Cl)c1F | RKO | cell growth, alamarBlue |  | unbound, 4.5% of total | 0.00265 µM |
| CCn1ncc2c1-c1cnc(N)c(c1)O[C@H](C)c1cc(F)ccc1-c1nn(C)nc1C2 | NCI-H2228, EML4-ALK v3 | cell viability |  |  | 0.0022 µM |
| CCCCN1C[C@H](O)[C@@H](O)[C@@H](O)[C@H]1CO | sample C patient fibroblasts | GlcCer level lowering, LC-MS/MS, measured: GlcCer d18:1/16:0 |  | 216 h | 29.6 µM |
| CC(=O)OC[C@H]1O[C@@H]([S-])[C@H](OC(C)=O)[C@@H](OC(C)=O)[C@@H]1OC(C)=O.CCP(CC)CC.[Au+] | NCI-H661 HMOX1-GFP high | cell viability, MTT |  | 48 h | 0.5 µM |
| Cn1cnc2c(F)c(Nc3ccc(Br)cc3Cl)c(C(=O)NOCCO)cc21 | HD-MB03 | cell growth |  | 168 h, single agent | > 10 µM |
| C[C@@H](Oc1cc(-c2cnn(C3CCNCC3)c2)cnc1N)c1c(Cl)ccc(F)c1Cl | Rh3 (alveolar rhabdomyosarcoma) | cell growth |  | 3 days | 0.45 ± 0.14 µM |
| C[C@H](Nc1ncnc2nc[nH]c12)c1cc2cccc(Cl)c2c(=O)n1-c1ccccc1 | human basophils | up-regulation, CD63, fMLP-induced, measured: CD63 | human whole blood | added: fMLP | 2 µM |
| CCCc1nc2c(n1Cc1ccc(-c3ccccc3-c3nnn[nH]3)cc1)C(=O)CCCC2 | human skeletal muscle cells | BCKD phosphorylation, AlphaLISA |  |  | > 60 µM |
| Cc1ccc(C)c(COc2cc(NC(=O)c3cc(C(F)(F)F)cc(C(F)(F)F)c3)ccc2NC(=N)N)c1 | RAW264.7 | cell growth, MTT |  | 48 h | > 500 µM |
| Cc1ccc(C(=O)c2cc(O)c(O)c([N+](=O)[O-])c2)cc1 | HD-MB03 | cell growth |  | 168 h, DMSO | 0.711 µM |
| CCc1nc(C(N)=O)c(Nc2ccc(N3CCC(N4CCN(C(=O)CCCCCCNc5ccc(S(=O)(=O)NC(=O)c6ccc(N7CCN(CC8=C(c9ccc(Cl)cc9)CC(C)(C)CC8)CC7)cc6Oc6cnc7[nH]ccc7c6)cc5[N+](=O)[O-])CC4)CC3)c(OC)c2)nc1NC1CCOCC1 | MOLM-14 FLT3-ITD F691L gilteritinib-resistant | cell viability, alamarBlue |  | 48 h | > 10 µM |
| O=C(NC[C@H](O)CO)c1ccncc1Nc1ccc(I)cc1F | HD-MB03 | cell growth |  | 168 h, single agent | 1.02 µM |
| COc1cc2nccc(Oc3ccc(NC(=O)C4(C(=O)Nc5ccc(F)cc5)CC4)cc3)c2cc1OC | Rh3 (alveolar rhabdomyosarcoma) | cell growth |  | 3 days | 3.94 ± 1.06 µM |

| Compound | cell line | assay | test system | conditions | IC50 |
| --- | --- | --- | --- | --- | --- |
| N=C(N)Nc1ccc(C(=O)Oc2ccc3[nH]c4ccccc4c3c2)cc1 | rat vascular smooth muscle cells | cell proliferation, MTT |  | added: PDGF-BB | 5.24 µM |
| Cn1nc(-c2ccccc2)c2c1OC(N)=C(C#N)C2c1ccc(-n2ccnc2)cc1 (centres unmarked) | NCI-H2122 | anchorage-independent growth |  |  | 1.3 ± 0.3 µM |
| Cc1cc(Nc2ncc(Cl)c(Nc3ccccc3S(=O)(=O)C(C)C)n2)c(OC(C)C)cc1C1CCNCC1 | Rh3 (alveolar rhabdomyosarcoma) | cell growth |  | 3 days | 0.36 ± 0.06 µM |
| O=C(O)COCC(=O)O | iPSC-derived hepatocytes B3 | cell viability |  | 72 h, differentiation day 23 | 7270 µM |
| CC(C)(C)c1nc(-c2cccc(NS(=O)(=O)c3c(F)cccc3F)c2F)c(-c2ccnc(N)n2)s1 | SK-MEL-2 (NRAS Q61R) | ERK phosphorylation, Western blot |  | 1 h | 25.1 µM |
| Nc1nc(N)c2nc(CNc3cccc4ccccc34)cnc2n1 | 786-O | mitochondrial toxicity, MitoTracker Red imaging |  |  | 33.1 µM |
| NC(=O)NO | mouse MDSCs differentiated in vitro | M-MDSC frequency, flow cytometry |  |  | 84 ± 2.8 µM |
| CN(c1ccc(NC(=O)c2cccc(C(=N)N)c2)cc1OCc1ccc(C(F)(F)F)cc1)S(=O)(=O)C(F)(F)F | RAW264.7 | cell growth, MTT |  | 48 h | > 500 µM |
| CC(=O)Nc1ccc(C(=O)Oc2ccc3[nH]c4ccccc4c3c2)cc1 | rat vascular smooth muscle cells | cell proliferation, MTT |  | added: PDGF-BB | 6.11 µM |
| CC(=O)c1c(O)c(C)c(O)c2c1OC1=CC(=O)C(C(C)=O)C(=O)C12C (single isomer, unassigned; (+)) | hepatocytes, iPSC-derived, W2 line | cell viability |  | 48 h | 26 µM |
| C[C@@H]1CN(C(=O)c2ccc(NC(=O)c3cc(O[C@H](C)c4c(Cl)ccc(F)c4Cl)c(N)nn3)cc2)C[C@H](C)N1 | NCI-H3122 (EML4-ALK variant 1) | cell viability |  |  | 0.0215 µM |
| Cc1c(C)c2c(c(C)c1O)CCC(C)(COc1ccc(CC3SC(=O)NC3=O)cc1)O2 (centres unmarked) | hepatocytes, iPSC-derived, W2 line | cell viability, RealTime-Glo MT |  | 72 h, differentiation day 23 | 69 µM |
| Cn1c(=O)n(-c2ccc(C(C)(C)C#N)cc2)c2c3cc(-c4cnc5ccccc5c4)ccc3ncc21 | HD-MB03 | cell growth |  | 168 h, DMSO | 0.0534 µM |
| CC(C)c1ccc(C2C(C#N)=C3N=C(N)c4ccccc4N3C3=C2C(=O)CCC3)cc1 (centres unmarked) | HMC3 | nuclear intensity, high-content imaging |  | geometric mean | 58.5 µM |
| COc1cc(Nc2c(C#N)cnc3cc(OCCCN4CCN(C)CC4)c(OC)cc23)c(Cl)cc1Cl | HD-MB03 | cell growth |  | 168 h, DMSO | 2.19 µM |
| CCCCC(=O)N(Cc1ccc(-c2ccccc2-c2nnn[nH]2)cc1)[C@H](C(=O)O)C(C)C | human skeletal muscle cells | BCKD phosphorylation, AlphaLISA |  |  | > 60 µM |
| COc1ccc(F)cc1C(=O)NCc1ccc(-c2nn([C@@H](C)C(F)(F)F)c(N)c2C(N)=O)cc1 | Rec1 | measured: MCP-3 |  | 24 h | > 0.1 µM |
| CN(C)C/C=C/C(=O)Nc1ccc(C(=O)Nc2cccc(Nc3ncc(Cl)c(-c4c[nH]c5ccccc45)n3)c2)cc1 | HD-MB03 | cell growth |  | single agent | 0.0131 µM |
| COc1cc(N2CCC(N3CCN(C)CC3)CC2)ccc1Nc1ncc(Cl)c(Nc2ccccc2P(C)(C)=O)n1 | NCI-H3122 (EML4-ALK variant 1) | cell viability |  |  | 0.0213 µM |
| C[C@H](Nc1ccc2c(c1)OCCn1cc(N3C(=O)OC[C@H]3C(F)F)nc1-2)C(N)=O | NCI-H460 | growth rate inhibition, CellTiter-Glo |  | 120 h | 10 µM |

For quick reference, copied from above:
| Compound | cell line | assay | test system | conditions | IC50 |
| --- | --- | --- | --- | --- | --- |
| COc1ccc(F)cc1C(=O)NCc1ccc(-c2nn([C@@H](C)C(F)(F)F)c(N)c2C(N)=O)cc1 | Rec1 | measured: MCP-3 |  | 24 h | > 0.1 µM |
| CN(C)C/C=C/C(=O)Nc1ccc(C(=O)Nc2cccc(Nc3ncc(Cl)c(-c4c[nH]c5ccccc45)n3)c2)cc1 | HD-MB03 | cell growth |  | single agent | 0.0131 µM |
